Experimental data of several laboratories.
Numbered parts are unrelated; each lists some results of a single study.

Series 1
Target: Interferon regulatory factor 5, full length, phosphomimetic (IRF5, Homo sapiens, UniProt Q13568-2, residues 1-514, K96S/S451D/S453D/S456D/S462D)
Technique: protein-binding microarray
Form: double-stranded DNA, one strand shown
Sample: in vitro
Concentration: 250 nM
Notes: 60-bp whole probe
Added: salmon DNA 0.4 mg/ml
Baseline: random background probes
Direction: higher = stronger binding
Quantity: log fluorescence
Shared flanks, not repeated: GCCTAGCAC … GTGCTAGGTCTTGATTCGCTTGACGCTGCTG
TTTGGTTTCCTACTGCTTTA: 1.09 z-score
GACGATCTGAGTATCGAGAC: 1.59 z-score
TTAGATCTCAGTACCGATTA: 0.325 z-score
GTGTTTCTCAGTTTATTTAT: 1.37 z-score
TTTATTTTCTGAATGCCCTC: 2.13 z-score

Series 2
Target: Histone acetyltransferase KAT6A, both winged helices, GST fusion (KAT6A, Homo sapiens, UniProt Q92794, residues 1-181)
Technique: protein binding microarray
Form: double-stranded DNA, one strand shown
Sample: in vitro
Concentration: not given
Notes: 8-mer, flanks averaged, mean of 2 arrays, mostly near background
Baseline: not given
Direction: higher = stronger binding
Quantity: E-score
Residues (chain): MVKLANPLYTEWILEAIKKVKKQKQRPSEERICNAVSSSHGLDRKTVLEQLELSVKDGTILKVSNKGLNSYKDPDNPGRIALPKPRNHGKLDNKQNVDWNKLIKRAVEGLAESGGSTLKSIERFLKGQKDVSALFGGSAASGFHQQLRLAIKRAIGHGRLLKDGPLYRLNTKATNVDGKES
ATATCCGA: 0.109
AAGTCCCA: -0.183
GAGCCTCA: 0.0436
AGATTCGA: -0.115
CAGGTCCA: -0.169
AACCTCGA: -0.0833

Series 3
Target: Sal-like protein 4, full length isoform B (SALL4, Homo sapiens, UniProt Q9UJQ4-2, residues 1-616)
Technique: universal PBM
Form: double-stranded DNA, one strand shown
Sample: in vitro
Concentration: not given
Notes: 8-mer, flanks averaged, mean of replicates
Direction: higher = stronger binding
Quantity: E-score
CCCGCAGC: -0.35
ACTAGTGG: -0.0445
CACGAGAC: -0.212
GGAGGCCA: -0.32

Single results of other studies
PhoQ, residues 284 288 289 292 302 303 AGGLSV
fold induction (PhoP, residues 12 14 15 18 19 NHFRA (Escherichia coli, UniProt P23836); Sort-seq, item: YFP reporter; E. coli; PhoQ-PhoP variant library, added: 10 µM Mg2+; baseline: high Mg2+ state, higher = stronger signaling): 0.977
